{"data": "Assay results pooled from the literature", "note": "Parts stem from different laboratories: compare values within a part only. Values joined by “and” are separate records of one study, mostly repeats; a detail may differ.", "chain of UniProt P35462 (whole entry, looked up)": "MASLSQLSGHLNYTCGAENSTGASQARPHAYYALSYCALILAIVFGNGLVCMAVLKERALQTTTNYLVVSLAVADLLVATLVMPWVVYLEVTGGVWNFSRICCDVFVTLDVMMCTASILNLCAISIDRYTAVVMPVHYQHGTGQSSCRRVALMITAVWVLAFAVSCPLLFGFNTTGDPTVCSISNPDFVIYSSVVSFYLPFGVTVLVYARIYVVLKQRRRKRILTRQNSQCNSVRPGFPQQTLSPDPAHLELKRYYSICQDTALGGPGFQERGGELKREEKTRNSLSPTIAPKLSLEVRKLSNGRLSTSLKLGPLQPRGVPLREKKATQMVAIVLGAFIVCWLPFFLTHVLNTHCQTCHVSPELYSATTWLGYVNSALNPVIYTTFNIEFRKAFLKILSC", "chain of UniProt P28221 (whole entry, looked up)": "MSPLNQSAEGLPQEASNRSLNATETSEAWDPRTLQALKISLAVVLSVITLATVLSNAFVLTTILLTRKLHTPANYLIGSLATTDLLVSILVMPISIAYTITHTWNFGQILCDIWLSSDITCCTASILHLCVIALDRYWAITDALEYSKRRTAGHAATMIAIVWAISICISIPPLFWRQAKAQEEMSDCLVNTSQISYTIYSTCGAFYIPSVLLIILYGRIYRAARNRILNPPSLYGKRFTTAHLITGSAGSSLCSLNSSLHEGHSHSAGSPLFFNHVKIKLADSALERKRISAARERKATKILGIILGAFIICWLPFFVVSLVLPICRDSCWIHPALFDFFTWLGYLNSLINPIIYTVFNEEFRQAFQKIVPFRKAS", "chain of UniProt P46098 (whole entry, looked up)": "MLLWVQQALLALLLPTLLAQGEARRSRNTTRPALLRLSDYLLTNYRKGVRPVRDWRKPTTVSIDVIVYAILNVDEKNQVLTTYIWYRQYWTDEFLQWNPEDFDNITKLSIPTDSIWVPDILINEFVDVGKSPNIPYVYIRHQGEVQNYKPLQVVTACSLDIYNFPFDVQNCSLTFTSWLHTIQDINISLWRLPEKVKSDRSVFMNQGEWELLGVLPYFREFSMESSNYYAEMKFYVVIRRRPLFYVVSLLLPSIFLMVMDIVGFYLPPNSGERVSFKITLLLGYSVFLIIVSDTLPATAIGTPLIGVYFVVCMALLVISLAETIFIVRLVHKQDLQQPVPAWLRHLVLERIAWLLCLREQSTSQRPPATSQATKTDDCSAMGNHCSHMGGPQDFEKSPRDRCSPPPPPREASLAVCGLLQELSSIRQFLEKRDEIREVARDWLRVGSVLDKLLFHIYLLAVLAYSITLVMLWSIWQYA"}
{"data": "Study 1", "cell line": "mouse MPNST tumor cells", "technique": "high-content nuclear imaging", "item": "cell number", "tested at": "10 µM", "time": "12 h", "notes": "mean of 2 replicates", "relative to": "plate mean", "direction": "higher = more cells"}
{"Compound": "CC(C)(Oc1ccc(Cl)cc1)C(=O)O", "nuclei count": "2.04 z-score and 1.57 z-score"}
{"Compound": "CNCC[C@@H](Oc1ccccc1C)c1ccccc1", "nuclei count": "1.14 z-score"}
{"Compound": "CCCNc1ccc2ncc(-c3ccc4[nH]ncc4c3)n2n1", "nuclei count": "-4.85 z-score"}
{"Compound": "N#Cc1c(-c2ccccc2)cc(-c2cc(Br)ccc2O)[nH]c1=O", "nuclei count": "1.38 z-score"}
{"Compound": "CC(=O)Nc1c(I)c(NC(C)=O)c(I)c(C(=O)O)c1I", "nuclei count": "-0.272 z-score"}
{"data": "Study 2", "target": "Beta-1 adrenergic receptor (ADRB1, Homo sapiens, UniProt P08588)", "action": "agonist", "chain of UniProt P08588 (whole entry, looked up)": "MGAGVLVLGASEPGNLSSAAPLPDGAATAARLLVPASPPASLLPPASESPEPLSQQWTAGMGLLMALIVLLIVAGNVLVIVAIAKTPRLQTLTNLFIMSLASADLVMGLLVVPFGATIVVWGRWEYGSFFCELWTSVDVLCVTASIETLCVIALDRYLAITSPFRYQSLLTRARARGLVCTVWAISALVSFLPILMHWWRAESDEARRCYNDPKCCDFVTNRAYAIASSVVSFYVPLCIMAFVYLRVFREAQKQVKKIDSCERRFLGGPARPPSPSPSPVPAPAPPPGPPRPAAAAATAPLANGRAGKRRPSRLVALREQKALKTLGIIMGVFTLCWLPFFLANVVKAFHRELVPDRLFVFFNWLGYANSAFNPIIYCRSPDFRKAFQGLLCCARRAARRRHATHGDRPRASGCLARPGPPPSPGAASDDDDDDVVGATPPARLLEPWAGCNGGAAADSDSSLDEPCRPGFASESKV"}
{"Structure (SMILES)": "Cc1ccc(-c2cc(C(=O)Nc3nnc(C)s3)c3ccccc3n2)s1", "EC50": "≥ 100 µM"}
{"Structure (SMILES)": "COc1ccc2c(CSc3nncn3-c3ccccc3)cc(=O)oc2c1", "EC50": "≥ 100 µM"}
{"Structure (SMILES)": "COc1ccc(-c2ccc3ncc4c(c3c2)n(-c2ccc(N3CCNCC3)c(C(F)(F)F)c2)c(=O)n4C)cn1", "EC50": "≥ 100 µM"}
{"Structure (SMILES)": "Cc1noc(C)c1-c1cc2cc(CNC3CCOCC3)oc2c(NC2CCN(C)CC2)n1", "EC50": "≥ 100 µM"}
{"Structure (SMILES)": "O=C(Nc1cccc(Cl)c1)N1CCN(c2cc(N3CCOCC3)cnn2)CC1", "EC50": "≥ 100 µM"}
{"data": "Study 3", "target": "3-phosphoinositide-dependent protein kinase 1 (PDPK1, Homo sapiens, UniProt O15530)", "observed": "enzyme activity", "action": "inhibitor", "tested at": "0.5 µM", "relative to": "control", "Residues (O15530 1-556)": "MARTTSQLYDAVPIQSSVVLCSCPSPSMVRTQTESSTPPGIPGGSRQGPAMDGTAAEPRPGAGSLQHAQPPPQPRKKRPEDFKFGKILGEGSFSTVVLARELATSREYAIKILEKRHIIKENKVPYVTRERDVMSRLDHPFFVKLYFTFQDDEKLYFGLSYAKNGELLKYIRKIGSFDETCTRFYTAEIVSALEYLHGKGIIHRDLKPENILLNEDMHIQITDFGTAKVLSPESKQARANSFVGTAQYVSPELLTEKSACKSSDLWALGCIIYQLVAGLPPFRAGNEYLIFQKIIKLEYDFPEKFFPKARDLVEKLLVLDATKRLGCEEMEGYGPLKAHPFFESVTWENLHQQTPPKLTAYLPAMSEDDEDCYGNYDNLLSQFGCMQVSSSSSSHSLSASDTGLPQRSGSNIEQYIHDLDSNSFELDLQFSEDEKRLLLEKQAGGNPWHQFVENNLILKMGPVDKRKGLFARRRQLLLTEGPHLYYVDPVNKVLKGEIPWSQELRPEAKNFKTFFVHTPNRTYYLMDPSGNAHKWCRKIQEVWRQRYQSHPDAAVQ"}
{"SMILES": "CNC(=O)c1cc(Oc2ccc(NC(=O)Nc3ccc(Cl)c(C(F)(F)F)c3)cc2)ccn1", "remaining activity [%]": 95.8}
{"SMILES": "Oc1ccc(-c2nc(-c3ccncc3)c(-c3ccc(F)cc3)[nH]2)cc1", "remaining activity [%]": 98.2}
{"SMILES": "Cc1cccc(-c2[nH]c(C(C)(C)C)nc2-c2ccc3c(c2)OCO3)n1", "remaining activity [%]": 89.8}
{"SMILES": "CC(C)[C@H](CO)Nc1nc(Nc2cc(N)cc(Cl)c2)c2ncn(C(C)C)c2n1", "remaining activity [%]": 106}
{"SMILES": "Nc1[nH]nc2nc3ccccc3nc12", "remaining activity [%]": 96.8}
{"SMILES": "COc1cc2nccc(Oc3ccc(NC(=S)NC(=O)c4ccccc4C)cc3)c2cc1OC", "remaining activity [%]": 105}
{"SMILES": "Cc1ccc(NC(=O)c2ccc(CN3CCN(C)CC3)cc2)cc1Nc1nc(-c2cccnc2)cs1", "remaining activity [%]": 101}
{"SMILES": "OCC(O)CCON=C1C(c2c(O)[nH]c3ccccc23)=Nc2ccccc21 (stereo not shown)", "remaining activity [%]": 83.3}
{"SMILES": "COc1ccc(CNC(=O)Nc2ncc([N+](=O)[O-])s2)cc1", "remaining activity [%]": 90}
{"SMILES": "COc1ccc(OC)c2c(=S)c3ccccc3[nH]c12", "remaining activity [%]": 94.9}
{"SMILES": "Cc1ccc(Nc2nccc(N(C)c3ccc4c(C)n(C)nc4c3)n2)cc1S(N)(=O)=O", "remaining activity [%]": 93}
{"SMILES": "COc1cc2ncnc(Nc3ccc(Oc4ccccc4)cc3)c2cc1OC", "remaining activity [%]": 111}
{"data": "Study 4", "cell line": "HaCaT", "tested at": "100 µM", "time": "60 h"}
{"SMILES": "CCN(Cc1ccncc1)C(=O)C(CO)c1ccccc1 (stereo not shown)", "viability [%]": 142}
{"SMILES": "CC(=O)c1ccc(S(=O)(=O)NC(=O)NC2CCCCC2)cc1", "viability [%]": 130}
{"SMILES": "C[N+](C)(C)CCOC(N)=O", "viability [%]": 130}
{"data": "Single results of other studies"}
{"SMILES": "N#CN1CC[C@H](C(=O)Nc2nc3c(s2)CN(C(=O)CN=[N+]=[N-])CC3)C1", "target": "5-hydroxytryptamine receptor 1D (HTR1D, Homo sapiens, UniProt P28221)", "test": "cell-free assay", "setting": "10 µM", "endpoint": "inhibition", "result": "-0.37%"}
{"SMILES": "CNC(=O)Nc1ccc2c(c1)C1(CC2)OC(=O)N(CC(=O)N(Cc2ccc(F)cc2)[C@@H](C)C(F)(F)F)C1=O (single isomer, unassigned)", "target": "D(3) dopamine receptor (DRD3, Homo sapiens, UniProt P35462)", "test": "binding", "setting": "off-target scan", "endpoint": "Ki", "result": "1.14 µM"}
{"SMILES": "Cc1nc(N2CC[C@@H](O)C2)ncc1-c1cc(C(F)(F)F)cc2[nH]ncc12", "target": "5-hydroxytryptamine receptor 3A (HTR3A, Homo sapiens, UniProt P46098)", "test": "binding, radioligand binding", "setting": "10 µM", "endpoint": "inhibition", "result": "6.06%"}
{"note": "Excerpt of the above (study 3):"}
{"SMILES": "COc1cc2nccc(Oc3ccc(NC(=S)NC(=O)c4ccccc4C)cc3)c2cc1OC", "remaining activity [%]": 105}
{"SMILES": "Cc1ccc(NC(=O)c2ccc(CN3CCN(C)CC3)cc2)cc1Nc1nc(-c2cccnc2)cs1", "remaining activity [%]": 101}
{"SMILES": "OCC(O)CCON=C1C(c2c(O)[nH]c3ccccc23)=Nc2ccccc21 (stereo not shown)", "remaining activity [%]": 83.3}
